Results collected from several papers.
A part holds a random share of what one study measured. Substitutions count along the parent as printed.

Sample 1
Target: Hepatocyte nuclear factor 3-alpha (Foxa1, Mus musculus, UniProt P35582, residues 1-468, full length assumed)
Technique: EMSA with sequencing
Molecule type: double-stranded DNA, one strand shown
Matrix: in vitro
Tested at: 10 and 20 nM
Notes: whole designed probe, mean of two concentrations, ends assumed
Baseline: negative control set to 0
Reading: higher = stronger binding
All sequences stand within: GTGAGCGGTGCCCATTGATGGGGAAC … TTTCACTGGGATCGTGGGGAC
Target sequence (chain): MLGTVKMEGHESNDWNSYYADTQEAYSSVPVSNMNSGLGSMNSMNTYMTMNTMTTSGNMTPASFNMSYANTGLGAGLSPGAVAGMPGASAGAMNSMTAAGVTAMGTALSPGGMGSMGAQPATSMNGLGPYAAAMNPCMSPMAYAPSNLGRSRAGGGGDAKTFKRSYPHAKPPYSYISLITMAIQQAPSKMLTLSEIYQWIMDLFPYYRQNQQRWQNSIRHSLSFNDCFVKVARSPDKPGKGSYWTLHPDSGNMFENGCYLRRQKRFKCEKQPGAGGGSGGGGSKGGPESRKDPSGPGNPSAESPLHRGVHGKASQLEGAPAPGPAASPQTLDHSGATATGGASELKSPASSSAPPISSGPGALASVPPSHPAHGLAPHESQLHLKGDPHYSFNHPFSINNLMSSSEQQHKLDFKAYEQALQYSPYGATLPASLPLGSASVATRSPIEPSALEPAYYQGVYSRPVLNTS
| Sequence | normalised bound fraction [ratio] |
| --- | --- |
| ATGCTTGGAAATATTTTAAACAGTGAAATCACCAACAAAAAGAGCATAAAAATGTGAAAAACATGGCTCTAAATAGCCCGCCAAAAGGGCACTAAATTACAGAGCTGAACCACAAAGGCAGAACGTCATCTTGTTCGATCTCAGCTAGGAACGTGCTCATAGGGTGACTCAGATTTTTGGCCACTGTGTGCAT | 0.022 |
| ATCTTCCCCCTCTTCCTTGCCCCACCAGCTCACCTACGGGGGTTATTTGCAGATAGGAAAATAAATAAAGCCGGCATTCGTTAACCCTCTTCTGGCGCAAACTGCTGTTTGCTCTGGATCTAACATGGTCCTTTGGCGACGCCAGGCTCCGGGAGAGCAAAGCACCGTGTCAGGGCCATGATCCGGGGTGGCC | 0.352 |
| GGTTGGACACCCCTGCTTTAATGTATGGAAATAGAGTACTCTGTATATATTCAAAGTACTGTGTGTATATTTGAGTATATTTGAATATTCCAAAGTAATCTAATAACTATGAAAGAATAGTCCTTACATAGCTAACATAAGCTGATCAATAATTAGTTTTTGTTAACCATCTGGTGTATGCTTTCTGTACCAA | 0.0978 |
| CTTGGGAGGGTATCGCTTTAGTCTTGCCCACATGGCTTGGAACAGGTTATTCTGTAGCATGCCAAGGACCTCAGGGCGGGGCCCTTTATGGATGTTTATTTTGGCTTGGGTACCCTTTGTGTCTAATGCAAGGTTCCTGCTCCTCTCATGCCCCCAGTGCGGGATGGAGGTAGGCACCTATTCACAGACTCTC | 0.238 |
| AGCAAGGCTTTAAAAGTGAGGTCTTTCAGTTTAGATGCAAAAAGGGTGGTTCTGTTGAGTCAACCCAGCTATTTCACTACATAGTTTCGTAATGTAAACACCTAGAATGAGGTAGCTGGAGTGCAAATCTAAATGGCTTGTGACAGTTAAGGAAGTACATAGGCAACAGTTACTGGTTTTCTTGATGCAGCTG | 0.243 |
| ATCTTCCCCCTCTTCCTTGCCCCACCAGCTCACCTACGGGGGTTATTTGCACAAAGGAAAATAAATAAAGCCGGCATTCGTTAACGCAGTTCACGCGCATACTGCTGTTTGCTCTGGATCTAACATGGTCCTTTGGCGAGGCGTGGCTCCGGGAGAGCAAAGCACCGTGTCAGGGCCATGATCCGGGGTGGCC | 0.388 |
| GTGTGTGCGCGCGCGTGTGTGTGTGTTTTCTTAAGCCGGGCTATTCAAACCCTGCTGCAATTCTCCGGTAAACAATGTTACATGGGGCATAATGCAAATAAACGGATTCAATGATTCATGGTTCGCGCACTTTGCAGCCGGCCCGGTGGAGCAGCCAGTGCCGGATTTCTCCCTTTTTTTGCAGATCTGCAGA | 0.433 |
| CCTAAGAAAAACTTATTTTAGCCCAATATTTTGGCCATTTCTTACCTCTTTCTGTAGAATTTCTTCTCGAACTTCAGAAACTACGAGAGACTCTTGTTTACTCTGCAGCTCATTAACTTGACTTTGGAAATGTCTTATAAGTACCTAGGAAATTGTTAGAAGTGCTGAGTTAATAAAGCTCCTCCTTGAACAC | 0.279 |

Sample 2
Sequence: B1 (TRIM22 RING domain)
Technique: yeast two-hybrid
Matrix: yeast
Notes: mostly zero background
Baseline: not given
Reading: higher = stronger interaction
B1: TRIM22 RING domain (UniProt Q8IYM9); chain KEVKMSPQEGQKRDVCEHHGKKLQIFCKEDGKVICWVCELSQEHQGHQTFRINEVVKECQEK
| target | lacZ reporter activity |
| --- | --- |
| UBE2C UBC core domain (UniProt O00762) | 0 |
| UBE2J2 UBC core domain (UniProt Q8N2K1) | 0 |
| UBE2Q1 UBC core domain (UniProt Q7Z7E8) | 0 |
| UBE2E3 UBC core domain (UniProt Q969T4) | 0 |
| UBE2D1 UBC core domain (UniProt P51668) | 0 |
| UBE2J1 UBC core domain (UniProt Q9Y385) | 0 |
| UBE2T UBC core domain (UniProt Q9NPD8) | 0 |
| UBE2I UBC core domain (UniProt P63279) | 0 |
| UBE2Z UBC core domain (UniProt Q9H832) | 0 |
| UBE2M UBC core domain (UniProt P61081) | 0 |
| UBE2R2 UBC core domain (UniProt Q712K3) | 0 |
| UBE2O UBC core domain (UniProt Q9C0C9) | 0 |
| UBE2B UBC core domain (UniProt P63146) | 0 |
| UBE2S UBC core domain (UniProt Q16763) | 0 |

Sample 3
Target: CCNE1, cyclin fold, Cln2 fusion (human)
Technique: yeast growth competition, sequencing
Matrix: yeast
Notes: strong parent motif
Baseline: not given
Reading: higher = stronger binding
Starting sequence: PKMYT1 docking peptide (human); SFEPRNLLSLFED
| Change | normalised enrichment score |
| --- | --- |
| SFEPRNLLILFED [S9I] | 1.36 |
| SFEPRNLGSLFED [L8G] | -0.233 |
| SFEPRELLSLFED [N6E] | 0.751 |
| SFEPRNLLSLFER [D13R] | 1.3 |
| SFEPRCLLSLFED [N6C] | 2.07 |
| SFEPRNLLSLFTD [E12T] | 1.49 |
| SFEPRNLLSLTED [F11T] | 0.866 |
| SCEPRNLLSLFED [F2C] | 0.887 |
| SFEARNLLSLFED [P4A] | 1.4 |
| TFEPRNLLSLFED [S1T] | 2.26 |
| SFSPRNLLSLFED [E3S] | 1.84 |
| SFEPRNLLSLQED [F11Q] | 0.201 |
| SFEPRNLLSEFED [L10E] | 2.32 |
| SYEPRNLLSLFED [F2Y] | 1.42 |
| SFEPRNLLSRFED [L10R] | 1.26 |
| SDEPRNLLSLFED [F2D] | 1 |
| SFEPRNLLSLFCD [E12C] | 2.44 |
| SFEPRKLLSLFED [N6K] | 0.795 |
| SFEPINLLSLFED [R5I] | 1.35 |
| SFEPRNLLSLFLD [E12L] | 1.45 |
| SFEPRNLLSLFEF [D13F] | 2.54 |
| SFEPRNHLSLFED [L7H] | 0.708 |
| SGEPRNLLSLFED [F2G] | 1.12 |
| WFEPRNLLSLFED [S1W] | 1.84 |
| SFEPRMLLSLFED [N6M] | 0.215 |

Sample 4
Target: ABI1, truncated, D143A, DHFR fusion (Arabidopsis thaliana)
Technique: DHFR PCA, deep sequencing
Matrix: yeast
Notes: methotrexate growth selection, single substitutions
With: (+)-ABA 0.11 µM
Baseline: wild-type fitted maximum
Reading: higher = stronger binding
Starting sequence: PYL1, truncated, DHFR fusion (Arabidopsis thaliana); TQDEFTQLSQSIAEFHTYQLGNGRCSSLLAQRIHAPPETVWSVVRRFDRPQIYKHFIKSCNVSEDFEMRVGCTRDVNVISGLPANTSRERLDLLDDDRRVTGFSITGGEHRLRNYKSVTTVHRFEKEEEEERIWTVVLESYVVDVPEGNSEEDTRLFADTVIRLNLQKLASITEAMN
| Change | relative binding score |
| --- | --- |
| E4V | 34.5% |
| P37E | -1.91% |
| P50H | 3.29% |
| R113Q | 53.5% |
| G21C | 20.5% |
| T154M | 6.09% |
| T39C | 19.2% |
| H16M | -4.87% |
| P37W | -0.969% |
| N165K | 9.53% |
| A13F | 4.6% |
| P37V | 16.6% |
| T119H | 3.02% |
| Q10P | 33.1% |
| G148E | 6.61% |
| V137D | -0.597% |
| V70E | 8.6% |
| R74C | 3.49% |
| N165Q | 2.89% |
| A175P | 10.4% |
| E130C | 25.5% |
| D75K | 22.9% |

For quick reference, copied from above (sample 3):
| Change | normalised enrichment score |
| --- | --- |
| SFEPRNLLSLTED [F11T] | 0.866 |
| SCEPRNLLSLFED [F2C] | 0.887 |
| WFEPRNLLSLFED [S1W] | 1.84 |
| SFSPRNLLSLFED [E3S] | 1.84 |
| SYEPRNLLSLFED [F2Y] | 1.42 |
| SFEPRNLLSLFLD [E12L] | 1.45 |
| SFEPRNLLSLFEF [D13F] | 2.54 |
| SFEPRNLLSLQED [F11Q] | 0.201 |
| SFEPRNLLSLFCD [E12C] | 2.44 |
| SFEPRCLLSLFED [N6C] | 2.07 |
| SFEPRNHLSLFED [L7H] | 0.708 |
